Measured values pooled from the literature.
Numbered parts are unrelated; each lists some results of a single study.

Block 1
Target: Histone acetyltransferase KAT6A, both winged helices, GST fusion (KAT6A, Homo sapiens, UniProt Q92794, residues 1-181)
Method: protein binding microarray
Molecule type: double-stranded DNA, one strand shown
Medium: in vitro
Tested at: not given
Setting: 8-mer, flanks averaged, mean of 2 arrays, mostly near background
Baseline: not given
Reading: higher = stronger binding
Target sequence (chain): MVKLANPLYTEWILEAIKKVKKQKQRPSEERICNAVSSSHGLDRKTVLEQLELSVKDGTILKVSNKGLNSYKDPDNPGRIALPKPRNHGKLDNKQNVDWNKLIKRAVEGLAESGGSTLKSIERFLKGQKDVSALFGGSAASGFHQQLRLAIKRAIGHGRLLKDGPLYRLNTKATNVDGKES
Sequence	E-score
TGGATGAA	-0.19
ATGGGGCG	-0.11
AACGAGTG	-0.209
CATATGCA	-0.00752
AGCTGGAA	-0.204
GAAAAGTC	-0.142
GAGTGATA	0.0486
GGTTTCAC	-0.007
ACACTATG	-0.144
AGCTTCTC	-0.107
GAGGCATA	-0.0394
CCACATTC	-0.167
ACCAGCGC	0.187
ACTTCGAG	-0.0157
AAACTATA	-0.113
TCTTCTAA	-0.042
GATGTACA	0.0356
ATACCTAA	-0.194
CGACCGCC	0.151
GCTATATA	-0.055
GCGAAAGA	-0.0595
AAGACCGG	0.0863
ACGCTGAC	0.0519

Block 2
Target: RING finger protein unkempt homolog, zinc fingers 1-6, GST-SBP tag (UNK, Homo sapiens, UniProt Q9C0B0, residues 30-357)
UniProt Q9C0B0, sequence (30-357, looked up): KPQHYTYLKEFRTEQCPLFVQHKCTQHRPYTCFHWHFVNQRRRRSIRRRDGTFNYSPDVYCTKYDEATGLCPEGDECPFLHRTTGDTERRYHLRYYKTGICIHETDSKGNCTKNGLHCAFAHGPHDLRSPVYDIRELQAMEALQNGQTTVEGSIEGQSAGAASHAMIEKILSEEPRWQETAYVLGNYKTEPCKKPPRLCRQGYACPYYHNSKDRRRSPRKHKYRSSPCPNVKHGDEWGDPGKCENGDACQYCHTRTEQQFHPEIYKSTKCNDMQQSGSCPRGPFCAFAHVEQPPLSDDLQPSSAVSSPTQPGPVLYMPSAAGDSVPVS
Method: RNA Bind-n-Seq
Molecule type: RNA
Medium: in vitro
Tested at: not given
Setting: RNA with constant flanks, human and mouse sites, ends assumed
Baseline: input RNA pool
Reading: higher = stronger binding
Sequence	bound/input enrichment
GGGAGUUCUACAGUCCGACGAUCCGACGCAAUAAGGAUGUGCUGGCCUGGGUAAAAAAGCGCAGAAGAACUAUUCGUAGAGAAGAUUUGAUCAGCUUCCUGUGUGGAAAGGUUCCUCCACCACGAAACUCUAGAGCUCCCCCACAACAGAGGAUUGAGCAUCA	0.206 ratio
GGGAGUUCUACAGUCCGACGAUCGGUGCUUAUAAUUAUCCUUUCACUUGGAACACACCCUCUGCUCCCCCUGGCUAUAACAUUGCUGUCAAACCAGAUCAGAUCCAGUACACUGAGCUGUCCAAUGCUAAGAUUGCCUACAAGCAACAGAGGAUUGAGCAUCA	0.178 ratio
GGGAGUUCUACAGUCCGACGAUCUCCUCGUCCUCUGACGUCAGUGAGGGCAGGGCAGCUGAAGCAUCUCAGGGAUUUAGAUUUCUUAGGCGAAGAUGGGGGUUGUCGUCGCUCAGCCAAAAUCAUAGCUCUGAACCAGAGGCACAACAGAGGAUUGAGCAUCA	0.435 ratio
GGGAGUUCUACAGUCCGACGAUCUGAGAAUGUUAUUUAAAGUUGUAUUAUAAUGUCACCUCCAAUAAUUAUUCAGUACUGUAGUAGCAAUGUGUUAUUUGUAAGAAUUUGGUUAUUUUUUAUACUUAUAUCCACUCUAAGUCUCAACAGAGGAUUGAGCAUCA	0.461 ratio
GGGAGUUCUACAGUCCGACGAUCUUUUGGUGUGUCAUCUUGUUUUUCACAACAUUUUUUCUGUCUUCAUUCCUCAAGCAAUUUAAGACCAAGCGUUACUUUCCUACCAAGGUGCGAUCGACAAUCAGUGAUUUUGCUGUAUUUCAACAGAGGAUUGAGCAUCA	0.203 ratio
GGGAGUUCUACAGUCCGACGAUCAAUAGUAUGGAUGUAGCAGCAGGUGCAGCAUCUGGUGCAAAAUCAAUGUGGACAGAACAUAAAUCACCUGAUGGAAGGACUUAUUAUUACAAUACUGAAACAAAACAGUCUACCUGGGAACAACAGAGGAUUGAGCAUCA	0.322 ratio
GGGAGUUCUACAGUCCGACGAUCAGAAAAUUGAAGCUGUGUAAAUGAGUAUGGAAGAUUAUGAUUUCCUGUUCAAAAUUGUUUUAAUUGGCAACGCUGGUGUGGGGAAGACGUGCCUCGUCCGAAGAUUCACUCAGGGUCUUUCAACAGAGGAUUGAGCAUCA	0.213 ratio
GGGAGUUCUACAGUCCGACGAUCAUGUACCCUCUCAAGCCCAGCUGGUGGUUCUGUGCCUUCCCCUACAGUUUCCUCAUCUUCGUCUACGACGAAAUCCGCAAACUCAUCCUGCGCAGGAACCCAGGGGGUUGGGUGGAGAAGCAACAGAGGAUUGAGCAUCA	0.166 ratio
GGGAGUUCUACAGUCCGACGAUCCAUCUGCGUCACCACAUAUGUGCUGAACUUCCUCCUCCUCAUCAUCAAUUACAAACGACUAGUUUAUUUGAAUGAGGCCUGGAAGCGACAGCUGCAGCCUAAGGAAGACUGAUGGCCAGCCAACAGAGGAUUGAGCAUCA	0.192 ratio
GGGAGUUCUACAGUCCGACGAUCGCCAAGGGAAGAGAUGGUGUUGAGUGGAAAAUACAAAUCUGGGGAACAAAUUCUUCGUUUGGCCAAUGAGAGAUUUGCUGUUCCGGAAAUACUCUUUAAUCCUUCUGAUAUAGGCAUUCACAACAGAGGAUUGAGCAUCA	0.276 ratio
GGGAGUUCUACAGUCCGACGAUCUUAGAUUCUGGAAAAUUUCGAGUUUUAGGAUGCAUCUUGUCUGAAUUGAAACAGAAGGGUGAUAGAGUUGUGUUAUUUAGCCAAUUUACCAUGAUGCUGGAUAUCUUAGAGGUUCUAUUACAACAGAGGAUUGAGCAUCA	5.54 ratio

Block 3
Target: RNA binding protein fox-1 homolog 2, RRM domain, GST-SBP tag (RBFOX2, Homo sapiens, UniProt O43251-10, residues 100-194)
Method: RNA Bind-n-Seq
Molecule type: RNA
Medium: in vitro
Tested at: 365 nM
Setting: natural RNA segment, single round, ends assumed
Baseline: no-protein control
Reading: higher = stronger binding
Target sequence (chain): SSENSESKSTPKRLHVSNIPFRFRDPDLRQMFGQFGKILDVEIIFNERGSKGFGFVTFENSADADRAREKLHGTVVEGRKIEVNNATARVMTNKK
Sequence	RBNS enrichment (R)
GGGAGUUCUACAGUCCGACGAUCGAACUCGAAAAUGGUGUUGCUUCAUGUACUUUGAAAACCAAUCAGGUGUUUCCUGCGCUACUACUUGUCAUGUUGCAUUCAUGUUCACAUCCUGAUUUCACUGCCUCAGAUGGAAUUCUCGGGUGCCAA	0.252
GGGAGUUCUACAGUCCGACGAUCUCUACCGUGCAGGGACUGGGCAAGCACAGCUUACUGCUAUAAUUGGGUAUAUAAGGCUUAAGAAUUUGGUCUAUGCCAGGCGUGGUGGCGCAUGCCUUUAAUCCCAGCACUGGAAUUCUCGGGUGCCAA	0.58
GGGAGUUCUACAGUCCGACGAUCUCUUGUUUUUGUUAAUUUAUUGGAACUCUGUAUAAGGCCAUAUUUUAGUGGCUGUCUGAAACCCCAUGUGUGAAGGGCCCCUUGCCCAACAGGGUUGAGGUGGGGAGCAAUGGAAUUCUCGGGUGCCAA	0.353
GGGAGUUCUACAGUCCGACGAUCAAAUAAGACAUGCUGAGUUUGGUGAGAAGAAGCAAAACCCGAGACCAUUAAUGAUUCAUCCGCACCAAUGAAGAAGUUGUAACUAACUAGCAUGCUGCGCAGACACUGGCUGGAAUUCUCGGGUGCCAA	1.95
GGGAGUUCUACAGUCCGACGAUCGAAAAAAGGACACUUGUAGAGUAAGUGAAAUGGAUACUACAUCUUUAAACAGCGUUUCUUCAUUGCCUGUGUAUGAGAAAAACUUGGAAGUGUGCCUGUGUAUAUAACUCUGGAAUUCUCGGGUGCCAA	14.3
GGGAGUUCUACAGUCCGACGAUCUCUAGACCCCACCCUGGGUGUAUGUGAGUGUGCAAGGGAAGGUGUUGCAUCCCCAGGGGCUGCCGCAGAGGCCGGAGACCUCCUGGACUAGUUCGGCGAGGAGACUGGCCUGGAAUUCUCGGGUGCCAA	2.47
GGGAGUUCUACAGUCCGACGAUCCCCUCCCCUUUUGGAAAUAUGAAAGCAAAUGUUUAGAAGAAUUCCUUUUGAAAAGCUGUGUCGUGUUCCCUGUGAAACUGAGCAGGUGUGUGUUGGCGCGCUAAGUGCCAUGGAAUUCUCGGGUGCCAA	0.777
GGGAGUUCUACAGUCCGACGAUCAAUGUCGUAAGCACAAUUAGACUUCUUCCGGCUUGAGUUUGCUGCCUCCUACAGCAAGGACAGGAAUCAGACCGACUCCCUAGCUUACGCUCUGGGAGGGGUACUGGGUAUGGAAUUCUCGGGUGCCAA	0.221
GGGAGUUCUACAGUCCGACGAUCGUGUGGUUAGUGGAAGACCUGGAGACAAAGGGGACUGUGGCUGGUGUCACCUGGAGAUGCCCUCUAUUGUGGCUUGGUUGGGCUUGUGUUUGAAAUGCUUUACAAAGGAAUGGAAUUCUCGGGUGCCAA	2.03
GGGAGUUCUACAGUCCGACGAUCAUAGAAGACAUUUCCGGUUGAGAGAACAGAUUCGUUGGAAGCUUAACUUUUGUUGCCUCUUAACGCCACCAAAUUUUAGGGUAAUUUGAUUAUGAAAGAGUGAAUUUUUCUGGAAUUCUCGGGUGCCAA	0.505
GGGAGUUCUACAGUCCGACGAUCUUACCGGUGAGACUGGGCUUGGACUGUACAAGACUUGAGUCCUAGACCUGGGUGUAUUUGCACUUUGGGGCCCUGUUGCUAGCCAUCUUGUGAGUGCCAAUGUAUAAUGCUGGAAUUCUCGGGUGCCAA	1.01
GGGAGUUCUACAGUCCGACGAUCAACAAGCCACCAACCACUGACUGCAAAACUGCCUGAUGCAGUUGGGUUCCUCCUGGUUUUCUUUUGUUACAACCACCCUUGCCUGUUUACAUUAAUUGCAAGGAGCAUAAUGGAAUUCUCGGGUGCCAA	1.27

Block 4
Target: Sal-like protein 4, full length isoform A (SALL4, Homo sapiens, UniProt Q9UJQ4, residues 1-1053)
UniProt Q9UJQ4, sequence (whole entry, looked up): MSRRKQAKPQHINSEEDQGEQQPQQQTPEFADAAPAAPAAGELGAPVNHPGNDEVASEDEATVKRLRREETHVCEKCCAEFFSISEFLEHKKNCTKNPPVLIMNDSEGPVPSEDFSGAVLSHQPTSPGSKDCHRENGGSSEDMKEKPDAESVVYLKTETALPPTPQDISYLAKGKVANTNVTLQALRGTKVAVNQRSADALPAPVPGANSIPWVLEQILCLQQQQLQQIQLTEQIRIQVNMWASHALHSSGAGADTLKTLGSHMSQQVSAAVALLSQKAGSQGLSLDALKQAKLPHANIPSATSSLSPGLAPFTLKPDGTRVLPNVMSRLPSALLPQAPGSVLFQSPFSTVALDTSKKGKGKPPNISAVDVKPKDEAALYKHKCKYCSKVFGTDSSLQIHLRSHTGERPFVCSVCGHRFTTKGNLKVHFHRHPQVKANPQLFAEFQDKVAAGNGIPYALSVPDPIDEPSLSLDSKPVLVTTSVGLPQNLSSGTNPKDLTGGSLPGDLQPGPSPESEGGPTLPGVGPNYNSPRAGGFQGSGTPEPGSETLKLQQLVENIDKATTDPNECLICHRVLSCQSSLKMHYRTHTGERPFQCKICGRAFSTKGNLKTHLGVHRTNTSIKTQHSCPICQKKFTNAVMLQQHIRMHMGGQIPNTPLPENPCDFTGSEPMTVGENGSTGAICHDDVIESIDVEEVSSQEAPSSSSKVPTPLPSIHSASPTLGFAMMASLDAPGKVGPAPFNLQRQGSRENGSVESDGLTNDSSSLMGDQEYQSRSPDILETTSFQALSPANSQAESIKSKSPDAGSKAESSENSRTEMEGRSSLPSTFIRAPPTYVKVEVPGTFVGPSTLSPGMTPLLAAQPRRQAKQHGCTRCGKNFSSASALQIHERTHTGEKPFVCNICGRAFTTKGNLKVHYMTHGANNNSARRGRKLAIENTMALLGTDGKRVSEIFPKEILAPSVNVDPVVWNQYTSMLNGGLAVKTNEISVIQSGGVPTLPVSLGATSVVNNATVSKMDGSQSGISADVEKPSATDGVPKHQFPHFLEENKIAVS
Method: universal PBM
Molecule type: double-stranded DNA, one strand shown
Medium: in vitro
Tested at: 600 nM
Setting: 8-mer, flanks averaged, mean of replicates
Reading: higher = stronger binding
Sequence	E-score
TACCTATA	0.212
AGAATCGC	0.0382
GGTAAGTA	0.141
CAAAGGAA	0.219
CCCTGCTC	-0.197
CTCATTAC	0.253
AAGGTCTG	-0.035
ACTTACCC	0.0554
ATGACCCG	-0.158
TACTAGTA	0.252
CTATGCTC	-0.048
AATACCAT	0.298
GCACTGAC	-0.109
GGCGATTA	0.0258
AGCTATCC	-0.24
TGCAACAA	0.153
CAGGCTTA	-0.0798
CAACTCGC	-0.0687
CGACCAAG	-0.227
GGATCGTA	-0.0325
AACAGGTC	-0.0519
ACGCGTGC	-0.0477

Excerpt of the above (block 1):
Sequence	E-score
ACTTCGAG	-0.0157
AAACTATA	-0.113
TCTTCTAA	-0.042
GATGTACA	0.0356
ATACCTAA	-0.194
CGACCGCC	0.151
GCTATATA	-0.055
GCGAAAGA	-0.0595
AAGACCGG	0.0863
ACGCTGAC	0.0519
